Measurements from different studies.
A part holds a random share of what one study measured.
Chain of UniProt P23443 (whole entry, looked up): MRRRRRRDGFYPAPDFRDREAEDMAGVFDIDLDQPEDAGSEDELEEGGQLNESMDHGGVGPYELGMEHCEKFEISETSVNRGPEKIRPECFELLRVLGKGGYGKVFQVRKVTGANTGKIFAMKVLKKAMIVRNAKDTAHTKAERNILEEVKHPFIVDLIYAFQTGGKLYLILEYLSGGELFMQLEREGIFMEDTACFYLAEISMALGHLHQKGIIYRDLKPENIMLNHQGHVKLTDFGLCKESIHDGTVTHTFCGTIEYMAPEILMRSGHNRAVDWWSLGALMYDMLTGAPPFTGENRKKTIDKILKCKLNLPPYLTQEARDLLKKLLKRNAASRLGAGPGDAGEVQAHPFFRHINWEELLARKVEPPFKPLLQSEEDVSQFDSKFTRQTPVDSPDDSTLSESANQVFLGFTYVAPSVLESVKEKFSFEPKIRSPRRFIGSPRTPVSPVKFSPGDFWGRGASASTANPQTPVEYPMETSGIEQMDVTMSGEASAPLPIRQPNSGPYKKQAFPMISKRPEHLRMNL
Chain of UniProt Q9UK32 (whole entry, looked up): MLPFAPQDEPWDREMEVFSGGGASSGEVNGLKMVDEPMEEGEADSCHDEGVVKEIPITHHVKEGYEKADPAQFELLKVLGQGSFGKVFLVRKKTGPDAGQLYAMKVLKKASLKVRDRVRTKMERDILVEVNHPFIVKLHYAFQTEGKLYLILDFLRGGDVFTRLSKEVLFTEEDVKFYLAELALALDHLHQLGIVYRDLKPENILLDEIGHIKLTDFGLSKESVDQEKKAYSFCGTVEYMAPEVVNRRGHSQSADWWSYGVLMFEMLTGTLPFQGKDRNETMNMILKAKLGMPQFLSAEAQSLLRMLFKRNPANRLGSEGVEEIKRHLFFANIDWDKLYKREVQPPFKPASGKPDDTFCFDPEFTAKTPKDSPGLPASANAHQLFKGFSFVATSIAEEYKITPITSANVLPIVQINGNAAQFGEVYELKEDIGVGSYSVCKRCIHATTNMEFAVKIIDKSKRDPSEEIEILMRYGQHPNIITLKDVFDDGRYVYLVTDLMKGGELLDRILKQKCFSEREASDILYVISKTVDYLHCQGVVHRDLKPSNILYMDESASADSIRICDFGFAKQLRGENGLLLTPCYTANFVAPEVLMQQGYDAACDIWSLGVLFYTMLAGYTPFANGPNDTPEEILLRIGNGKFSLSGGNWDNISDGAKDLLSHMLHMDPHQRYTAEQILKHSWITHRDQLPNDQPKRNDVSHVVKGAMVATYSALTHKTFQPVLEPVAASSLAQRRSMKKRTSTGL
Chain of UniProt Q9Y2U5 (whole entry, looked up): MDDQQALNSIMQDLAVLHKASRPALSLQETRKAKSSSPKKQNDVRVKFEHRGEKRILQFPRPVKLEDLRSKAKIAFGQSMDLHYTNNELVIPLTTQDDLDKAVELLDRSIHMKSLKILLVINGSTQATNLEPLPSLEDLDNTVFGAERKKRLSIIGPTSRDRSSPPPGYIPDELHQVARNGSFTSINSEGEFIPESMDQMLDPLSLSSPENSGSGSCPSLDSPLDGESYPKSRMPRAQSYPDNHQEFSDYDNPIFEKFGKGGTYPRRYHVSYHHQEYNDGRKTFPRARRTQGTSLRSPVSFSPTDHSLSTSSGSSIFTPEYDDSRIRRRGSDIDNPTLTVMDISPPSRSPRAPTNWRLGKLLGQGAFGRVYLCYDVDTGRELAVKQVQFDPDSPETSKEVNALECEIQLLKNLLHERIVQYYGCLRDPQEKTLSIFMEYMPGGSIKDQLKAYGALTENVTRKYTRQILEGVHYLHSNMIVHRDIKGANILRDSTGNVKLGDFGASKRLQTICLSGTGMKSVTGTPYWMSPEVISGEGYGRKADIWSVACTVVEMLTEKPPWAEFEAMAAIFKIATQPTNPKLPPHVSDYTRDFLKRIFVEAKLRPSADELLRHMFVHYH
Chain of UniProt Q9P289 (whole entry, looked up): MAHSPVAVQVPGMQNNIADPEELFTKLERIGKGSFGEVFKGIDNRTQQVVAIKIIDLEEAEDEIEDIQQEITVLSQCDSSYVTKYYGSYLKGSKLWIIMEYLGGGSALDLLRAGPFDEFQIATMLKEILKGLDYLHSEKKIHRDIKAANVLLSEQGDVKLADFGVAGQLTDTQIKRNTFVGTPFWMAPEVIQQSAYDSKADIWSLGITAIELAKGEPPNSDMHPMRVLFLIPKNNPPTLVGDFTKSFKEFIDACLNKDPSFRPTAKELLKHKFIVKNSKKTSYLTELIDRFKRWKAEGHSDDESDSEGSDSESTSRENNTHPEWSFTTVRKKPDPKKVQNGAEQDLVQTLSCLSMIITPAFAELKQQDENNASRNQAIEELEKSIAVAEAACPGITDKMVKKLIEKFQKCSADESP
Chain of UniProt Q8TDX7 (whole entry, looked up): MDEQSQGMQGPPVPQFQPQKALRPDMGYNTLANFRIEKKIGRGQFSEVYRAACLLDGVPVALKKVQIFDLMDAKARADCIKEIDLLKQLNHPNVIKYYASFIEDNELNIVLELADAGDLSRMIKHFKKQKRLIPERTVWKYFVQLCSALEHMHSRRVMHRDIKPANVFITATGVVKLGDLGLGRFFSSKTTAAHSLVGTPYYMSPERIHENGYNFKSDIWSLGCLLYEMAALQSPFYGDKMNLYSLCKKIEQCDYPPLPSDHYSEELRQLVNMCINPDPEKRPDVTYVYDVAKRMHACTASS
Chain of UniProt P10721 (whole entry, unmodified, looked up): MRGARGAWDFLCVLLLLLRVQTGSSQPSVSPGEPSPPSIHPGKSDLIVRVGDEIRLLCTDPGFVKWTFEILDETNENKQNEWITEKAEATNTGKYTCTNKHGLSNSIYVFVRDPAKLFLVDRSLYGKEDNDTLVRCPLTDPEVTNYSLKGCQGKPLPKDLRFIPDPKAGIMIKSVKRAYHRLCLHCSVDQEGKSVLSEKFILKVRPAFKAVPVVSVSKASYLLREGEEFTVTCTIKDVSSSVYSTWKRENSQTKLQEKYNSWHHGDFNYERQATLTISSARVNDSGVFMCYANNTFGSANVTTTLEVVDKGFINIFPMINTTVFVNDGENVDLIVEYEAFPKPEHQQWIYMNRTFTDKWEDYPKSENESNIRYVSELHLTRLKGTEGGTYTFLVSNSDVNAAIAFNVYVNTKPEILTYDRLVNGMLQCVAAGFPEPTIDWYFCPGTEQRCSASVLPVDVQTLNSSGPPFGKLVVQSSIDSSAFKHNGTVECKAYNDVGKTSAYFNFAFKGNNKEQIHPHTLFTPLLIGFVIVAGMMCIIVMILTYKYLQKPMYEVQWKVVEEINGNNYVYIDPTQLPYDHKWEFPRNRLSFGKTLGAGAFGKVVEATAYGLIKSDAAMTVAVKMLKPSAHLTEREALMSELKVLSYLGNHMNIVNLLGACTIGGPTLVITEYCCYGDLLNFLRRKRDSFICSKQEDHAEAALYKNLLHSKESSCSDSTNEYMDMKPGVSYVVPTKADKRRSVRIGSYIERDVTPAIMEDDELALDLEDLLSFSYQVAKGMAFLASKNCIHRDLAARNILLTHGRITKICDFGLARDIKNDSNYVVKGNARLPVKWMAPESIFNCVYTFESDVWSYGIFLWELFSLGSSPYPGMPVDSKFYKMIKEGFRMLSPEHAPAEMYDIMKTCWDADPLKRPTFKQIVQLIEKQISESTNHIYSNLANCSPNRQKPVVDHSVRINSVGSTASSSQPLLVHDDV

Block 1
Host: human
Medium: microsomes or S9
Tested at: 2 µM
Time: 0.5 h
Compound	remaining compound [%]
CC(NC(=O)c1cn(C)nc1-c1ccc2c(c1)OCCCO2)c1ccc(-n2cncn2)cc1 (centres unmarked)	98.5
Cc1nnc(SCc2nc(N)nc(Nc3ccc4ccccc4c3)n2)s1	10.5
CC(=O)c1c(O)c(-c2ccc(Cl)cc2)c[nH]c1=O	67.7
O=C(N[C@@H]1CC[C@H]2Oc3ccccc3N[C@H]2[C@@H]1O)c1ccccn1	83.6

Block 2
SMILES: CO[C@@H](C)c1c(Nc2ccc([C@H](N(C)C(=O)C3CCS(=O)(=O)CC3)C(F)(F)F)cc2)cnc2cc(Cl)nn12
Effect on: cell-free assay
Method: competition with immobilised ligand
Tested at: 1 µM
target	remaining binding
EPHA8 (Homo sapiens, UniProt P29322)	91%
RPS6KB1 (Homo sapiens, UniProt P23443)	100%
MAP2K5 (Homo sapiens, UniProt Q13163)	60%
Ribosomal protein S6 kinase alpha-6, N-terminal kinase domain (RPS6KA6, Homo sapiens, UniProt Q9UK32)	100%
PIK3CA (Homo sapiens, UniProt P42336, Q546K)	100%
FGFR1 (Homo sapiens, UniProt P11362)	74%
KIT (Homo sapiens, UniProt P10721, V559D/V654A)	92%
EGFR (Homo sapiens, UniProt P00533, del746-750)	98%
MAP3K2 (Homo sapiens, UniProt Q9Y2U5)	100%
STK26 (Homo sapiens, UniProt Q9P289)	100%
PKN2 (Homo sapiens, UniProt Q16513)	100%
PTK6 (Homo sapiens, UniProt Q13882)	81%
Ribosomal protein S6 kinase alpha-5, N-terminal kinase domain (RPS6KA5, Homo sapiens, UniProt O75582)	86%

Block 3
Cell line: HaCaT
Tested at: 100 µM
Time: 36 h
Structure (SMILES)	viability [%]
CNC(=O)c1cnn(-c2nc(N)c3ncn([C@@H]4O[C@H](CO)[C@@H](O)[C@H]4O)c3n2)c1	99.1
CCN(CC)C(=O)Nc1ccc(OCC(O)CNC(C)(C)C)c(C(C)=O)c1 (centres unmarked)	91.5
CC(=O)N(O)CCCCCNC(=O)CCC(=O)N(O)CCCCCNC(=O)CCC(=O)N(O)CCCCCN	31.8
CN(C)CCOC(c1ccc(Cl)cc1)c1ccccn1 (centres unmarked)	93.1
CCC1=C(C)CN(C(=O)NCCc2ccc(S(=O)(=O)NC(=O)N[C@H]3CC[C@H](C)CC3)cc2)C1=O	91.2

Block 4
Compound: COc1ccc2[nH]c3c4[nH]c5ccc(OC)cc5c4c4c(c3c2c1)C(=O)NC4=O
Effect on: binding
Tested at: 1 µM
target	method	remaining binding [%]
NEK7 (Homo sapiens, UniProt Q8TDX7)		92
EGFR (Homo sapiens, UniProt P00533)	competition with immobilised ligand	51
JAK1 (Homo sapiens, UniProt P23458)		39
ROCK2 (Homo sapiens, UniProt O75116)		73
